# Results gathered from unrelated publications.
# Numbers after ± are the reported error.
# CHRM1: Muscarinic acetylcholine receptor M1 (CHRM1, Homo sapiens, UniProt P11229)
# Sequence of UniProt P11229 (whole entry, looked up): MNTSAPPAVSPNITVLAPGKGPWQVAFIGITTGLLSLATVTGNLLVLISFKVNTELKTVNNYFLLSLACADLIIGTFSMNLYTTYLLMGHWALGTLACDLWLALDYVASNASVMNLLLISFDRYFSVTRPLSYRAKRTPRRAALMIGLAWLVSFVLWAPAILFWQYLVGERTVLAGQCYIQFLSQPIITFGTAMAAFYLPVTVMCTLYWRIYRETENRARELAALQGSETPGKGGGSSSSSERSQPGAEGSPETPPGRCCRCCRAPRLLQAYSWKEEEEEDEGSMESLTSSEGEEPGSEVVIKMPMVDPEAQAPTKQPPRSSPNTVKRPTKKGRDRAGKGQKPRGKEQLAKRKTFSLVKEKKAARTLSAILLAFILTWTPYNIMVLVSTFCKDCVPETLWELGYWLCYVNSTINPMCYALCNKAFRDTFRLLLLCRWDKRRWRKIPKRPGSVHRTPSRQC
# CASP3: Caspase-3 (CASP3, Homo sapiens, UniProt P42574)
# Sequence of UniProt P42574 (whole entry, looked up): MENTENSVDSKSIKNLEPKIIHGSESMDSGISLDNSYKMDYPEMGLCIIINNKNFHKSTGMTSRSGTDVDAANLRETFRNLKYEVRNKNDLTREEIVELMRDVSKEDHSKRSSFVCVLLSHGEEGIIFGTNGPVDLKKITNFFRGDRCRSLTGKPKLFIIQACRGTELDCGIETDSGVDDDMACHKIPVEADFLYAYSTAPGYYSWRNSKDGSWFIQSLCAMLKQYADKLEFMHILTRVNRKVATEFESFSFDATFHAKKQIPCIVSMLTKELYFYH
# CHRM3: Muscarinic acetylcholine receptor M3 (CHRM3, Homo sapiens, UniProt P20309)
# Sequence of UniProt P20309 (whole entry, looked up): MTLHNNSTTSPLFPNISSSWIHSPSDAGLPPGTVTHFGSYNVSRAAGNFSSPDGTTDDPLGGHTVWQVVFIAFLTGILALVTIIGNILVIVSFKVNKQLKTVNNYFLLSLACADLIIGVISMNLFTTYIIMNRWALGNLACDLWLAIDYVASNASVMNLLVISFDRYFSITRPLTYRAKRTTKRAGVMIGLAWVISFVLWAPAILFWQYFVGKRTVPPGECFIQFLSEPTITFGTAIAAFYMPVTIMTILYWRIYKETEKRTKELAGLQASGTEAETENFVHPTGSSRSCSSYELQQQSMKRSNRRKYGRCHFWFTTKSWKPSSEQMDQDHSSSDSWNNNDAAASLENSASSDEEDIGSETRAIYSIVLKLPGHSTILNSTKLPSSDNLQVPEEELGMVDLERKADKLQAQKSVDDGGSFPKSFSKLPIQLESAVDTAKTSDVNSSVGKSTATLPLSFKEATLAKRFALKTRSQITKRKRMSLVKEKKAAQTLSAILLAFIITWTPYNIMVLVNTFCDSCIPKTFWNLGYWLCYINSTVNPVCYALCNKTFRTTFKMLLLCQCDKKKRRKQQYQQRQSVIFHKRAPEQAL
# SLC10A2: Ileal sodium/bile acid cotransporter (SLC10A2, Homo sapiens, UniProt Q12908)
# Sequence of UniProt Q12908 (whole entry, looked up): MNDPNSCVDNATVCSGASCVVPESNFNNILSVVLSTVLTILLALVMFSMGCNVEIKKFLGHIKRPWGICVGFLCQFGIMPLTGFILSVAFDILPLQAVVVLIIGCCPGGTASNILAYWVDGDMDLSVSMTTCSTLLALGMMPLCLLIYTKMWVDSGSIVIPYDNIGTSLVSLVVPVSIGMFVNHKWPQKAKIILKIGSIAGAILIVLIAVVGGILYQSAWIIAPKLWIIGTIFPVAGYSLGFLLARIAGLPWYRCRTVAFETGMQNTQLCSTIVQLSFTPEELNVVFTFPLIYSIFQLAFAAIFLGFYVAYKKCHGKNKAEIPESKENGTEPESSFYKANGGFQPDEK
# Sequence of UniProt P24666 (whole entry, looked up): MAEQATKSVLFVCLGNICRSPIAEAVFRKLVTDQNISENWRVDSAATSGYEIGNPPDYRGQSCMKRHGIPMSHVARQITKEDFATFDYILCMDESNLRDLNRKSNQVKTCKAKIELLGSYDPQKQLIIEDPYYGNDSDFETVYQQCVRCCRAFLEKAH
# Sequence of UniProt P61169 (whole entry, looked up): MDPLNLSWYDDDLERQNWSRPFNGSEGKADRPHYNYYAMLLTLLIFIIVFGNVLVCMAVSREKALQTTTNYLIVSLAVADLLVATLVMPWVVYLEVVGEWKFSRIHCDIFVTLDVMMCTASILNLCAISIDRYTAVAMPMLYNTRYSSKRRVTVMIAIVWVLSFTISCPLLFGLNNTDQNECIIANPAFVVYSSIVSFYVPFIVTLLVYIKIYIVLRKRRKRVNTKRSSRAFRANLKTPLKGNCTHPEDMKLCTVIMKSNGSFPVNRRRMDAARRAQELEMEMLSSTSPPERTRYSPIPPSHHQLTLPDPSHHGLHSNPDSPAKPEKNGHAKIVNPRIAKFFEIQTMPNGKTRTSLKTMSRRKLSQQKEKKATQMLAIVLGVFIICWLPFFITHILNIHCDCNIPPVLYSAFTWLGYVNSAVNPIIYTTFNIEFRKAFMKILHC
# Sequence of UniProt P97687 (whole entry, looked up): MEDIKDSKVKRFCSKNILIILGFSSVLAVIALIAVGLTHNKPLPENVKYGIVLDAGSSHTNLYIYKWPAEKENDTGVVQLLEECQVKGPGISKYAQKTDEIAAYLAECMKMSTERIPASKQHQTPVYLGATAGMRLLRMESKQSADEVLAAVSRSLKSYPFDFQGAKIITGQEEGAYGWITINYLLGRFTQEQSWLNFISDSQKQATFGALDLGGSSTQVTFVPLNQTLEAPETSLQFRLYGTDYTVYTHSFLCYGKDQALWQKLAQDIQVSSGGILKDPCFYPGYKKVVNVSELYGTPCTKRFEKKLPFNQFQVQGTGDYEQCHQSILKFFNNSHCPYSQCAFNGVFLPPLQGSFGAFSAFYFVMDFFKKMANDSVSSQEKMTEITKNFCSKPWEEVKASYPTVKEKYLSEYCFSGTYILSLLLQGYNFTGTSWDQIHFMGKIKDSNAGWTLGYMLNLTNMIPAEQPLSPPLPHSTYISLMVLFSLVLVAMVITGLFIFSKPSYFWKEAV
# Sequence of UniProt Q9H227 (whole entry, looked up): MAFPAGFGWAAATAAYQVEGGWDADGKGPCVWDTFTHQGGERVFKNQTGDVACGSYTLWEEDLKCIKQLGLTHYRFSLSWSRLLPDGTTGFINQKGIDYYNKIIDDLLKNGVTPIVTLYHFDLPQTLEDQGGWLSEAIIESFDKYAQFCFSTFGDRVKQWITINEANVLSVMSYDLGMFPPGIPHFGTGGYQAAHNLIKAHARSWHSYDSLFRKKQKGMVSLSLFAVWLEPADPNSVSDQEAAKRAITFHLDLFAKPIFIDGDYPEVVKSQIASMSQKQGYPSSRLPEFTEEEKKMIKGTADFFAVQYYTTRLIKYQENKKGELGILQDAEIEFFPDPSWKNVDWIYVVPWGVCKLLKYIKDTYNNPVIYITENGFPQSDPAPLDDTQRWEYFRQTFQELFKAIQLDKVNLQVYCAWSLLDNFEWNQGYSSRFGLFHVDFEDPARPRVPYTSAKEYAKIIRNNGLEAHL
# Sequence of UniProt P0DMS8 (whole entry, looked up): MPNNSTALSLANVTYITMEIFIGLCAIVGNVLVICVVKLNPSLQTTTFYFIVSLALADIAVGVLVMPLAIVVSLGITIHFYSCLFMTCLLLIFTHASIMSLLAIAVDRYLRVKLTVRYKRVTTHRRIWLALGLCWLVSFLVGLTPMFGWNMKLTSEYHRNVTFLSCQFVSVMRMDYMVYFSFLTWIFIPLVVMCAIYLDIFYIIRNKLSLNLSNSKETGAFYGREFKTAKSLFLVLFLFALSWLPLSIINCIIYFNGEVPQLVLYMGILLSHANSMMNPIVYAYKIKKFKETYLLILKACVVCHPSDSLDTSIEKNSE
Compound,target,test,test system,conditions,Ki [nM]
CNc1nc(C#Cc2ccc(Cl)s2)nc2c1ncn2[C@@H]1O[C@H](CO)[C@@H](O)[C@H]1O,"ADORA3 (Homo sapiens, UniProt P0DMS8)","ligand displacement, radioligand",,cell membranes,3.7
NCc1cc(C(=O)NCCN2CCC(OC(=O)C(c3ccccc3)c3ccccc3)CC2)cc(C(=O)NCCN2CCN(CCCCC3CCN(CC(=O)N4c5ccccc5NC(=O)c5ccccc54)CC3)CC2)c1,CHRM1,"ligand displacement, radioligand",,,5.25
CCN(CC)C(=O)c1ccc(-c2cc(NCCCN3CCCCC3)c3ccccc3n2)cc1,"Low molecular weight phosphotyrosine protein phosphatase, isoform A (ACP1, Homo sapiens, UniProt P24666)","enzyme activity, uncompetitive inhibitor",,"0.78 nM enzyme, together with: OMFP",846 ± 29.2
OC[C@@H]1[C@@H](O)[C@H](O)[C@@H](O)CN1CCCCCOCC12CC3CC(CC(C3)C1)C2,"GBA3 (Homo sapiens, UniProt Q9H227)","enzyme activity, inhibitor",,,27600
CC(=O)N[C@H](C(=O)N[C@@H](CC(=O)O)C(=O)N[C@H](CCN)C(=O)N[C@H](C(=O)N[C@H](C=O)CC(=O)O)C(C)C)C(C)C,CASP3,"enzyme activity, inhibitor, fluorescence",,pH 7,2290
O=C1Nc2ccccc2N(C(=O)CN2CCC(CCCCN3CCC(N4CCC(n5c(=O)[nH]c6ccccc65)CC4)CC3)CC2)c2ccccc21,CHRM3,"ligand displacement, radioligand",,,97.7
Cc1nc(N=Nc2ccc(S(=O)(=O)O)cc2S(=O)(=O)O)c(COP(=O)(O)O)c(C=O)c1O,"Ectonucleoside triphosphate diphosphohydrolase 1 (Rattus norvegicus, UniProt P97687)","enzyme activity, inhibitor",,cell membranes,46000
CC(=O)N[C@@H](CC(=O)O)C(=O)N[C@H](C(=O)N[C@@H](CCCNC(=N)N)C(=O)N[C@H](C=O)CC(=O)O)[C@@H](C)O,CASP3,"enzyme activity, inhibitor, fluorescence",,pH 7,81.3
C[C@H](CCC(=O)OCc1ccccc1)[C@H]1CC[C@H]2[C@@H]3[C@H](O)C[C@H]4C[C@H](OC(=O)CCC(=O)O)CC[C@]4(C)[C@H]3CC[C@]12C,SLC10A2,"transporter uptake, inhibitor, radiometric",,,6730
CCCCCCOc1ccc(C(=O)OCCN2CC=CCC2)cc1,CHRM3,"ligand displacement, radioligand",,cell membranes,5750
Cc1ccc(NC(=O)CC[C@H](NC(=O)CC[C@@H](C)[C@H]2CC[C@H]3[C@@H]4[C@H](O)C[C@@H]5C[C@H](O)CC[C@]5(C)[C@H]4CC[C@]23C)C(=O)OCc2ccccc2)c(C)n1,SLC10A2,"taurocholate uptake, inhibitor",ASBT-MDCK,"10 min, together with: taurocholate 2.5 µM",28100
NCc1cc(C(=O)NCCN2CCN(CCCCC3CCN(CCCN4C(=O)CCc5ccccc54)CC3)CC2)cc(C(=O)NCCN2CCN(CCCCC3CCN(CC(=O)N4c5ccccc5NC(=O)c5ccccc54)CC3)CC2)c1,CHRM1,"ligand displacement, radioligand",,,3.02
Fc1cc(CN2CCOCC2)ccc1OCCCN1CCN(c2cccc3sccc23)CC1,"Drd2 (Rattus norvegicus, UniProt P61169)","cell-free assay, radioligand",,,78.5
CN1CCC=C(c2nsnc2OCCCCCN2CCN(CCCCCOc3nsnc3C3=CCCN(C)C3)CC2)C1,CHRM1,"ligand displacement, radioligand",,,43.7
Nc1nc2c(ncn2C2OC(COP(=O)(O)O)C(O)C2O)c(=O)[nH]1 (stereo not drawn),"Hypoxanthine-guanine phosphoribosyltransferase (Trypanosoma cruzi, UniProt Q4DGA3)","enzyme activity, inhibitor",,"pH 8.3, 37 °C, together with: PRPP varied and guanine fixed",5000 ± 1000
